Published values from different studies.
Numbered parts are unrelated; each lists some results of a single study.

Block 1
Target: Ras GTPase-activating protein-binding protein 1, full length (G3BP1, Homo sapiens, UniProt Q13283)
Chain of UniProt Q13283 (whole entry, looked up): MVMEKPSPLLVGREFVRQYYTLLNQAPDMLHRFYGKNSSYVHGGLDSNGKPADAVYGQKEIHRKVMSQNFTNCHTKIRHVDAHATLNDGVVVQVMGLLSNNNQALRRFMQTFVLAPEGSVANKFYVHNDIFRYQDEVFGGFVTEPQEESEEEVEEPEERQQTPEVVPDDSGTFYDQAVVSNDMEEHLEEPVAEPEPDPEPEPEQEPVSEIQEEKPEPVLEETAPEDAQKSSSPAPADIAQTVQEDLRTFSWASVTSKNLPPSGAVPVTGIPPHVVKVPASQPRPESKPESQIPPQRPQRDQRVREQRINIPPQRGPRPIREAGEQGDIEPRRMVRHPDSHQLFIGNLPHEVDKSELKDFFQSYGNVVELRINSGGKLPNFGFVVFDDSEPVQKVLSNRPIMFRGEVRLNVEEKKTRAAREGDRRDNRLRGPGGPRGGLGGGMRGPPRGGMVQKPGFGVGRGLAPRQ
Method: RNA Bind-n-Seq
Form: RNA
Matrix: in vitro
Concentration: 200 nM
Setting: whole 134-nt RNA, ends assumed
Added: 150 mM KCl
Relative to: input library
Direction: higher = stronger binding
| Strand | log2 enrichment |
| --- | --- |
| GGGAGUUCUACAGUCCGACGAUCUAACUUUAGAGGAGGAUCUGAUGGAUAUGGCGGUGGACGUGGAUUUGGGGAUGGCUAUAAUGGGUAUGGAGGAGGACCUGGAGGUGGCAAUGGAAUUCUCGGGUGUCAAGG | 0.414 |
| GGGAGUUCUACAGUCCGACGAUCAAGUCCUGUGCUACACAUCGUAUGUACCGAAUCGGGUUUUUUUGGGUUUGGGUGGGAAAGUAUUAUGUUACGCCGUUCGGAUCUGCACUUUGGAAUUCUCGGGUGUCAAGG | 0.163 |
| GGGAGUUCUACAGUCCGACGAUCUGGCCCUGGUGGCAUGCGGGGAGGAAGAGGUGGCCUCAUGGAUCGUGGUGGUCCUGGUGGAAUGUUCAGAGGUGGCCGUGGUGGAGACAGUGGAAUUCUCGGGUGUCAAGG | 0.0677 |
| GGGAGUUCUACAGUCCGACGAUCCCUCAAGUCCUGUGCUACACAUCGUAUGUACCGAAUCGGGAAGGAAGGGAAGGAAAGUAUUAUGUUACGCCGUUCGGAUCUGCACUUCCAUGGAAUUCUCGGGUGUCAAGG | -0.384 |
| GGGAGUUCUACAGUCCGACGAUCUCCUGUGCUACACAUCGUAUGUACCGAAUCGGGAAAAAGGGAAAAAAAGGGAAAAAGGGAAAGUAUUAUGUUACGCCGUUCGGAUCUGCAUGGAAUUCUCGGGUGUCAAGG | -0.385 |
| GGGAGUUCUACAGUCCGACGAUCGCAGGAAGUAAAAACAAAUGGGAAUGCUUCGGAUAGUGGCAGGGGUGGGGGUUGCUAAGGAAAGGGUGGGAUGGGAGUGGGUAAAGAGUUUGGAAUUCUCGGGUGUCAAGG | 0.778 |
| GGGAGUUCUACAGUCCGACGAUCUCCUCAAGUCCUGUGCUACACAUCGUAUGUACCGAAUCGGAGGAGGUUUGGAAAGUAUUAUGUUACGCCGUUCGGAUCUGCACUUCCAGCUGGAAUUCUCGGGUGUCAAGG | -0.816 |
| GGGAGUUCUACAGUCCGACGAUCAAGUCCUGUGCUACACAUCGUAUGUACCGAAUCGGGUGGGUUUUUGGGAAAAAGGGAAAGUAUUAUGUUACGCCGUUCGGAUCUGCACUUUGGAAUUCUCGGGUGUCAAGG | 0.0773 |
| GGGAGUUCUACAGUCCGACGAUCUGGCCCUGGUGGCAUGCGGGGAGGAAGACGUGGCCUCAUGGAUCGUGGUGGUCCCGGUGGAAUGUUCAGAGGUGGCCGUGGUGGAGACAGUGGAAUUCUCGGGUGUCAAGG | 0.154 |
| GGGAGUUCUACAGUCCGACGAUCCUCAAGUCCUGUGCUACACAUCGUAUGUACCGAAUCGGGGCCGGGCCGGCCGGAAAGUAUUAUGUUACGCCGUUCGGAUCUGCACUUCCAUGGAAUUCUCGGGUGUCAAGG | -0.378 |

Block 2
Target: Histone acetyltransferase KAT6A, both winged helices, GST fusion (KAT6A, Homo sapiens, UniProt Q92794, residues 1-181)
Method: protein binding microarray
Form: double-stranded DNA, one strand shown
Matrix: in vitro
Concentration: not given
Setting: 8-mer, flanks averaged, mean of 2 arrays, mostly near background
Relative to: not given
Direction: higher = stronger binding
Residues (chain): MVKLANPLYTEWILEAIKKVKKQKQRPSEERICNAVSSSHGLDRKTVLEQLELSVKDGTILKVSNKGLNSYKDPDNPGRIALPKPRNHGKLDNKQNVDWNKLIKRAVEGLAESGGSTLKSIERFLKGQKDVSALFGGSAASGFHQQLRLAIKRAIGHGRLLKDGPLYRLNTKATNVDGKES
| Strand | E-score |
| --- | --- |
| CCCTTCAG | -0.221 |
| AGCTCTAA | -0.119 |
| CCCGGTTA | 0.2 |
| ACGTCTGA | -0.027 |
| AAGGAACT | -0.0312 |
| ACAAACGA | -0.0949 |
| TGAAGCAA | -0.129 |
| AGCATGAC | -0.0723 |
| CTGAGACA | -0.237 |
| ATGTAATG | -0.0259 |
| AAGTGCTG | -0.238 |
| CTCCTATC | -0.132 |
| AATATGAC | -0.139 |
| CTCGAAAA | -0.087 |
| GTATCGGA | 0.121 |
| CGACTTTC | 0.116 |
| AGGTTTTG | -0.0815 |

Block 3
Target: RNA binding protein fox-1 homolog 2, RRM domain, GST-SBP tag (RBFOX2, Homo sapiens, UniProt O43251-10, residues 100-194)
Method: RNA Bind-n-Seq
Form: RNA
Matrix: in vitro
Concentration: 365 nM
Setting: natural RNA segment, single round, ends assumed
Relative to: no-protein control
Direction: higher = stronger binding
Residues (chain): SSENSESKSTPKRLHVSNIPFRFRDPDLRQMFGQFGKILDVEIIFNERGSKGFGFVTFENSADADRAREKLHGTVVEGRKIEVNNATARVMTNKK
| Strand | RBNS enrichment (R) |
| --- | --- |
| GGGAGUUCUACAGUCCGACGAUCCUGUCCCUCUGCAGAGGGAUACCUUCCAAUAGUAAAUUAUCUGGUUCCUCACUGAAACAAGUUAUUUUUGCUUCAUAUAGUCAGAGUCAGACUGACAUGAUAAAAUAUCAUGGAAUUCUCGGGUGCCAA | 0.256 |
| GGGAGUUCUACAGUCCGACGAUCUCAGCCUGGCCUCCAGCAGAGCAGAGGCUCUGGAGCUCCACAUCCUGCCUGCAGGGAGCCCUCAGGGUGCCCUCCAGAGUACAGGGAGAAACUAAAGGCAAUAACAGAAGUGGAAUUCUCGGGUGCCAA | 0.202 |
| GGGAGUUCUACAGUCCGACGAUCCCUAGGGUUUCGAUGUGCUGUGUUCUCAUCCUACAGCUGGUUUGGUAAUGAUCUGCAAGUCCCGGAGAGCAACAGCACAGCUCCGCCUGACGCUCUCAUUAAAAUCCAUGUGGAAUUCUCGGGUGCCAA | 0.757 |
| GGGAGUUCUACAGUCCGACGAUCACCCAUGGUACCAAUCAUGAAUCUUUGUUUCAGGUUCAGUAUUAUGUAGUUGUUCGUUGGUUAUACAAGUUCUUGGUCCCUCCAGAACCACCCCGGCCCCCUGCCCGUUCUGGAAUUCUCGGGUGCCAA | 0.335 |
| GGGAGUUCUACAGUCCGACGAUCCUCCAAAGAAAGCCAUGCUAAGACUGGGACCAGCCCCUCGUUAGCAUGUCUCCCUGCCACCUGUCACCCAGGAGCUUUGACAUUAUUUCUGCUGCCAUACUCCCCUAGAAUGGAAUUCUCGGGUGCCAA | 0.61 |
| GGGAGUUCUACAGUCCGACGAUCCUCCCAUUGCCCAAGAGAGAGGGCAGGGAACAGGCUACUGUCCUUCCCUGUGGAAUUGCCGAGAAAUCUAGCACCUUGCAUGCUGGAUCUGGGCUGCGGGGAGGCUCUUUUGGAAUUCUCGGGUGCCAA | 0.795 |
| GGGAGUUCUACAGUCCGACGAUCAAAAAAUGGAGUGAUAUUUAAAAAUGCCAUCGAUGGUGGGGAUCUUACUGGGGAAGAGGAAGGACCAUUAGCACACCAUCAUGAUGUCAGAUGACAAAAUGGAAGCCAAGUGGAAUUCUCGGGUGCCAA | 0.928 |
| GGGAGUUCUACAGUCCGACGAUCCCAAUGCCUGUGGAGAGUCUACAGGCCUAAGUGGCGGCCAUCUCAGUAAAGAUAUGGGCCAAGGAUAGUUUUUGUACCUGGGGCCUAUACCCAAUAACAAAAUCUGCCGGUGGAAUUCUCGGGUGCCAA | 1.89 |
| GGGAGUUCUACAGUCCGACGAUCGAGCAUAGGACCUGGUCUCUGGCUCUCCUCCCCCCUGCUGUGUAAAUAGUCUCCCCAUCCCAUGAGGGGGCUUUGAUGGCCCUGGAGACCCUACAGUAAAUAAACCAGCAUGGAAUUCUCGGGUGCCAA | 0.575 |

Block 4
Target: RING finger protein unkempt homolog, zinc fingers 1-6, GST-SBP tag (UNK, Homo sapiens, UniProt Q9C0B0, residues 30-357)
Method: RNA Bind-n-Seq
Form: RNA
Matrix: in vitro
Concentration: not given
Setting: RNA with constant flanks, ends assumed
Relative to: input RNA pool
Direction: higher = stronger binding
Target sequence (chain): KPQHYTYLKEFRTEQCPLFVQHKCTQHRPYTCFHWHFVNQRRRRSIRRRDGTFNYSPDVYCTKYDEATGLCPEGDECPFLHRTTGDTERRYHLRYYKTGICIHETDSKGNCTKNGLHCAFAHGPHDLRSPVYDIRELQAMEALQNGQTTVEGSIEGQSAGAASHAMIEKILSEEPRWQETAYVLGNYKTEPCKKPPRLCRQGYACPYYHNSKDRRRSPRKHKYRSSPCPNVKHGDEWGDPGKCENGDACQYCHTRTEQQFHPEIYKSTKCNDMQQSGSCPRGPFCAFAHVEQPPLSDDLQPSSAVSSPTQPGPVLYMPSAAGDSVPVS
| Strand | bound/input enrichment [ratio] |
| --- | --- |
| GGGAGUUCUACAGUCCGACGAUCUCCCUCGCCUGUGGUAAACCAACACAGCGGGUUCUUACAAAAGAACCCAAAUCAAAGGAAACCGAAAAUGGUCAUAUAUUUACAGUUAAUGAUCAAUUCACAUCCAAACUACACAGAGUCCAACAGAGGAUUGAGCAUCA | 0.198 |
| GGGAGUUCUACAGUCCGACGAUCUGAGCUGCCGAAGCCGCUGCCCUGCUCUCCGUCGCGGGCUCCUUUAAUCCCAUUGUUUCUUUCCGAUUCGCUUGGGCCUAGACGCCCUCGGGGCCCGAUAUUCGGGUUGGGCGGUACCGCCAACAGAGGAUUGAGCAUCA | 0.22 |
| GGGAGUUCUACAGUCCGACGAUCUGCGUCACAUGGGAAAUAAAUCCUGAGGCCAGGAUCACCAGUGGGGUAGAGUCAUCUUCACCGUCUCCUGUUAUCCUCCCCCUGAACAAAGAACAAAGUGAGACUGGGAAGCUAGUGUUGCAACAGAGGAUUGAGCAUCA | 0.25 |
| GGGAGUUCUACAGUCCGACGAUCAUUGAGAACAGCUCUCCAAAUAGGAAUAGUAGUAAAAAAAAUAAGCAAAAUGAUAUUUGUACCGAAAAAACAGAAGUUAAAUCAUGUAAAGUAAAUGCUGCCAACCUUCCAGGUCCUAAACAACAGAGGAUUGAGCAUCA | 71.2 |
| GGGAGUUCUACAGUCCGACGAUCAUCGUGGAGUAUCAGAAUAAGGGCCGAGCGAACGAGUGCGUCCAGUAUCAGCAUGUGUUACACCGAAAUCUCAUUUAUUUAGCUACCAUCGCAGACGCCAACACAAGCAGUCUCACAAAGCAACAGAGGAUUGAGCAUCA | 0.278 |
| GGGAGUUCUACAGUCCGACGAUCAGCCCGCGGGCGCCUCAGGUAGAAGAAGAAAGGUGCCACUCCGGCAUGAAGACAGACUCGCUCCGUCGCCAGUCACUUAAGCUGAGUGCAUUGUGAUUUCCAAUAAUUGAGGCAGUGGUUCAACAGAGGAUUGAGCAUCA | 0.152 |
| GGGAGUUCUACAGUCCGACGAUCACCCAAGUUGGAGUCAUUCGAUGCCCAGUUUGCAGUCAAGAGUGUGCUGAGAGACACAUCACCGACAACUUUUUUGUGAAGGACACCACUGAAGUUCCUAGUAGUACAGUAGAAAAGUCUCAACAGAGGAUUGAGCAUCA | 6.79 |
| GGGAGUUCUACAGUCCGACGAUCAGUUACCGGCUACCCAAGGACUUUGUAGACCUCUCUACUGGGGAGGACGCUCACAAGCUAACCGACUUCCUUAAGCUGAAGAGAAAUCAGCAGGAGGACGACUGAUGAGCGUACUGGAACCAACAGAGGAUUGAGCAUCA | 0.0603 |
| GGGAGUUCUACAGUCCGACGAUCGUGCUUUUAUUACUUUCAUCUAUACACUUCCAGUGUCGAAGGCUGGACAGAUCUGCUCACUUCCGCACUCUGGCAAUUAAACAGAACCCCCUUCUGGCAGAAGCUUAUUCGAAUUUGGGGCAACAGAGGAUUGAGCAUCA | 0.173 |
| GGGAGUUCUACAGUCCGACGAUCAAAGGGAAAUCUGUCCGUGUUCAUGUACAGUUCUUUGAUGACAGCCCAACAAGGGGCUGGGUCCGCAAAAGGAUGUUAAAGCCAUAUACAGGUUCAAAGUCAAAGGAAGCCCAAAAGGGACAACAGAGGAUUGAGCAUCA | 0.16 |
| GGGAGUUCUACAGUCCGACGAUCUGGGAUGAAAAUCUAAAAGAUGAUUCUCUUCCUUCAAAUCCAAUAGAUUUUUCUUACAGAGCCGCUGCUUGUCUUCCUAUUGAUGAUGUAUUGAGAAUUCAGCUCCUUAAAAUUGGCAGUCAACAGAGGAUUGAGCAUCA | 0.41 |

Repeated from above (block 2):
| Strand | E-score |
| --- | --- |
| ATGTAATG | -0.0259 |
| CCCTTCAG | -0.221 |
| AGCTCTAA | -0.119 |
